Measurements collected from several papers.
Lines come from different studies, so protocols differ. Several values in a cell are separate wells, animals, samples, runs or records. ± gives the spread as reported.
UniProt Q9UHI6, sequence (whole entry, looked up): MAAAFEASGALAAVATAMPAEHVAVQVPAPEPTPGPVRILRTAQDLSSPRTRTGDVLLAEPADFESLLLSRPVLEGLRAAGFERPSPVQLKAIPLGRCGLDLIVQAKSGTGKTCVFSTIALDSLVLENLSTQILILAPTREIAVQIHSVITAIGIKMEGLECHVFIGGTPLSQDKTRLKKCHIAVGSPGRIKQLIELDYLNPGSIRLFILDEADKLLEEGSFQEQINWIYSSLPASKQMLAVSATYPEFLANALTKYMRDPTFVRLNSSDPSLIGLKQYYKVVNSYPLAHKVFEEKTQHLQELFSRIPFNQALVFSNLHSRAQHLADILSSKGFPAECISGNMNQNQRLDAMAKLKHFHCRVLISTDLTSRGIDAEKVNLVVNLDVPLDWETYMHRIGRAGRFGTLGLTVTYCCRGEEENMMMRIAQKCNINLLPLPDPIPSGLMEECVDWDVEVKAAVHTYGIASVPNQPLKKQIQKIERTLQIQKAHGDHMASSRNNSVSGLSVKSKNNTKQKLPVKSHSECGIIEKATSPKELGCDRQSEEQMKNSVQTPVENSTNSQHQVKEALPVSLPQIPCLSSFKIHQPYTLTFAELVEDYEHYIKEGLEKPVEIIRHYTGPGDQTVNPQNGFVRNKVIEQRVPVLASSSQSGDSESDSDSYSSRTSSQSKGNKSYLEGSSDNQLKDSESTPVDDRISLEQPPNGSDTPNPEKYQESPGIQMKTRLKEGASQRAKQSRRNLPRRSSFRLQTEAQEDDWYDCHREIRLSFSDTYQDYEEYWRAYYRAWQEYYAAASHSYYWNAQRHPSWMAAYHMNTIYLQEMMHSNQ

CC(c1ccccc1)(c1ccc(O)cc1)c1ccc(O)cc1: “S phase cells” 8.92 ± 2.46% (HepG2 spheroids; Hoechst flow cytometry; 10 µM, 24 h).
CN1CCN(C2(CNC3CCN(c4cccc(-c5cc6cc(F)ccc6[nH]5)c4)CC3)CCC2)CC1 gave a CC50 of 6.4 µM (TK-10).
With C[C@H]1CN(c2n[nH]c3nc(N[C@H]4CC[C@H](NS(=O)(=O)CCC(F)(F)F)CC4)ncc23)CCO1 the IC50 was ≥ 20 µM (Probable ATP-dependent RNA helicase DDX20 (DDX20, Homo sapiens, UniProt Q9UHI6); biochemical).
The inhibition of c1csc(-c2ccc(-c3cccs3)s2)c1 is reported as 11.1% (THP-1; pyroptotic LDH release; 2 µM, 40 min, added: LPS then nigericin).
With COc1c(CCC[P+](c2ccccc2)(c2ccccc2)c2ccccc2)cc2c(c1OC)OCO2.[I-] the Log10GI50 was > -4 log M (NCI/ADR-RES; SRB).
O=S(=O)(c1ccc(O)cc1)c1ccc(O)cc1 — result for “G2 phase cells”: 12.1 ± 3.42% (HepG2 spheroids; Hoechst flow cytometry; 0.10 µM, 96 h).
CN1CCc2[nH]c(-c3ccnc(NC(=O)[C@@H](CC(F)F)c4ccc(F)cc4)c3)c(Nc3ccccc3)c2C1=O — result for “log2 fold change”: -3.3 (MOLM-13; RNA-seq, measured: MCM4 mRNA; 200 nM, 24 h; reference: DMSO).
For COc1cc(CCC[P+](c2ccccc2)(c2ccccc2)c2ccccc2)c(OC)c2c1OCO2.[I-], the LC50 was > -4 log M (OVCAR-5; SRB).
With CC(C)N1CCC(NC2CCN(c3cccc(-c4cc5cc(F)ccc5[nH]4)c3)CC2)CC1 the CC50 was 7.5 µM (TK-10).
Cc1cccc(CC(=O)N2CCc3c2ccc(-c2cn(C)c4ncnc(N)c24)c3F)n1 gave a maximum inhibition of 28.7% (human coronavirus OC43; virus-induced cell killing; MRC-5; screen).
Oc1ccc(C2(c3ccc(O)cc3)c3ccccc3-c3ccccc32)cc1: “G2 phase cells” 18.8 ± 3.13% (HepG2 spheroids; Hoechst flow cytometry; 40 µM, 24 h).
For Nc1ncnc2c1ncn2[C@@H]1O[C@@H]2COP(=O)(O)O[C@H]3[C@@H](O)[C@H](n4cnc5c(=O)[nH]cnc54)O[C@@H]3COP(=O)(O)O[C@H]2[C@H]1O, the fold enrichment was 28.4 (HFF-1; RNA sequencing, measured: Reactome endosomal/vacuolar pathway; upregulated pathways; reference: mock).
O=C1N[C@H]2[C@H](CS[C@H]2CCCCC(=O)N2CCN(C(=O)c3ccc(/C=C/c4n[nH]c5cc(-c6ccc(S(=O)(=O)F)cc6)ccc45)cc3)CC2)N1: “number of engaged kinases” 114 (K562, HeLa, MCF7 combined; SILAC LC-MS/MS; SILAC ratio at least 2).
Oc1cc(Cl)ccc1Oc1ccc(Cl)cc1Cl — result for “point of departure”: 5.62 µM and 9.55 µM (HepG2; high content imaging, measured: nuclear size; 24 h, distribution mode 1).
Cc1cc(C(C)(C)c2ccc(O)c(C)c2)ccc1O: “S phase cells” 8.02 ± 2.57% (HepG2 spheroids; Hoechst flow cytometry; 0.10 µM, 96 h).
With Cc1nn(-c2nc3ccc(Cl)c(Cl)c3[nH]2)c(O)c1C1OC(=O)c2ccccc21 (centres unmarked) the viability was 100% and 97.4% and 107% (RAW-ISG; CCK-8; 0.1 µM).
OC1CCN(c2ccc(/C=N/NC(=S)Nc3ccc(F)cc3)cc2)CC1 has a selectivity ratio of 10.3 (BEAS-2B and A549; MTT; reference: IC50 BEAS-2B over IC50 A549).
C=C(C)[C@H]1Cc2c(ccc3c2O[C@@H]2COc4cc(OC)c(OC)cc4[C@@H]2C3=O)O1: “lowest concentration increasing apoptotic cells” ≤ 0.78 µM (ReNcell VM; YO-PRO-1 staining; 24 h).
O=C1CCP(=S)(c2ccccc2)CC1: “late apoptotic cells” 48.5% (SW-620; Annexin V-FITC/PI flow cytometry; IC50, 72 h).
Cc1sc2c(c1C)C(c1ccc(Cl)cc1)=N[C@@H](CC(=O)OC(C)(C)C)c1nnc(C)n1-2: “log2 fold change” 0.298 (iCas9-MOLM-13 sgGFP; RNA-seq, measured: PRTN3; 50 nM, 24 h; reference: DMSO).
The inhibition of O=C(O)c1[nH]c(=O)[nH]c(=O)c1F is reported as -32.9% (THP-1; pyroptotic LDH release; 2 µM, 40 min, added: LPS then nigericin).
The GI50 of Nc1ncc(-c2nc(N3CCOCC3)nc(N3CCOCC3)n2)c(C(F)F)n1 is reported as 0.236 µM (panel of 44 tumour cell lines; cell growth; 72 h, panel mean).
Under “normalized enrichment score”, C/C=C(/C)C(=O)O[C@H]1C(C)=C2[C@H]([C@@H]1OC(=O)CCCCCCC)[C@@](C)(OC(C)=O)C[C@H](OC(=O)CCC)[C@@]1(O)[C@H]2OC(=O)[C@@]1(C)O is recorded as -0.99 (HEK-293T; RNA-seq GSEA, measured: Hallmark myogenesis; 500 nM, 6 h; direction not given).
With C[C@@H]1C[C@@H]([C@H](O)CC2CC(=O)NC(=O)C2)C(=O)[C@@H](C)C1 the viability was 16.2% and 13.5% (MDA-MB-231 BAX/BAK siRNA knockdown; CellTiter-Glo; concentration not given; reference: normalised luminescence).
With CN(C)C(=S)SSC(=S)N(C)C the luciferase activity was 325 fold (LUHMES MT1G-HiBiT G3; measured: MT1G; 2 µM, 24 h; reference: DMSO, maximum).
With O=C(O)C(Cl)Cl the maximum inhibition was 14.7% (human coronavirus OC43; virus-induced cell killing; MRC-5; screen).
For COc1c(C)c2c(c(O)c1C/C=C(\C)CCC(=O)O)C(=O)OC2, the IC50 was 1.05 µM (Calu-6; cell proliferation; lung cancer).
CCCC[C@@H]1NC(=O)[C@H](Cc2ccc(O)cc2)NC(=O)[C@@H]2CCCN2C(=O)[C@H](CC(=O)O)NC(=O)[C@H](C)NC(=O)[C@H](Cc2ccccc2)NC(=O)[C@@H]2CSCCC(=O)N3CN(CN(C3)C(=O)CCSC[C@@H](C(=O)N[C@@H](C)C(N)=O)NC1=O)C(=O)CCSC[C@H](NC(=O)[C@H](C)NC(C)=O)C(=O)N[C@@H]([C@@H](C)CC)C(=O)N[C@@H](CCC(=O)O)C(=O)N[C@@H](CCC(=O)O)C(=O)N[C@H](CCCCNC(=O)CCc1cn(CCOCCOCCOCCN(CCOCCOCCOCCC(=O)N[C@H]3CSCCC(=O)N4CN5CN(C4)C(=O)CCSC[C@H](NC(=O)[C@@H](CC(=O)O)NC(=O)[C@H](Cc4cccc6ccccc46)NC(=O)[C@@H]4CCCN4C3=O)C(=O)N[C@@H](CCSC)C(=O)N[C@@H](CCCCNC(=N)N)C(=O)N[C@@H](CC(=O)O)C(=O)N[C@@H](Cc3c[nH]c4ccccc34)C(=O)N[C@@H](CO)C(=O)N[C@@H]([C@@H](C)O)C(=O)N3CCC[C@H]3C(=O)N3C[C@H](O)C[C@H]3C(=O)N[C@@H](Cc3c[nH]c4ccccc34)C(=O)N[C@H](C(N)=O)CSCCC5=O)CCOCCOCCOCCn3cc(CCC(=O)NCCCC[C@H]4NC(=O)[C@H](CCC(=O)O)NC(=O)[C@H](CCC(=O)O)NC(=O)[C@H]([C@@H](C)CC)NC(=O)[C@@H](NC(=O)[C@H](C)NC(C)=O)CSCCC(=O)N5CN6CN(C5)C(=O)CCSC[C@H](NC(=O)[C@H](Cc5ccc(O)cc5)NC(=O)[C@H](CCC(N)=O)NC4=O)C(=O)N[C@@H](Cc4ccccc4)C(=O)N[C@@H](C)C(=O)N[C@@H](CC(=O)O)C(=O)N4CCC[C@H]4C(=O)N[C@@H](Cc4ccc(O)cc4)C(=O)N[C@@H](CCCC)C(=O)N[C@H](C(=O)N[C@@H](C)C(N)=O)CSCCC6=O)nn3)nn1)C(=O)N[C@@H](CCC(N)=O)C(=O)N[C@@H](Cc1ccc(O)cc1)C(=O)N2 gave an EC50 of 0.00083 ± 0.00019 µM (human PBMC with HT-1376 coculture; IL-2 secretion; added: anti-CD3).
Oc1ccc(Br)cc1 has an inhibition of -13.6% (THP-1; pyroptotic LDH release; 2 µM, 40 min, added: LPS then nigericin).
For COc1ccc2c(c1)[nH]c1c(C)nccc12, the DNA methylation was 92.9% (DU-145; bisulfite pyrosequencing, measured: RASSF1A promoter CpG site 17; 10 µM, 16 h).
For CO[C@H]1[C@H](O)[C@H](O[C@H]2CC[C@@]3(C=O)[C@H](CC[C@@H]4[C@@H]3CC[C@]3(C)[C@@H](C5=CC(=O)OC5)CC[C@]43O)C2)O[C@@H](C)[C@@H]1O, “MyBP-C level change” read 13.2 SD (human iPSC cardiomyocytes; plate-normalised; concentration not given, hit retest; reference: vehicle controls, SDs below control).
With CC[C@@H](C)[C@@H](NC(=O)[C@@H](Cc1c[nH]c2ccccc12)NC(=O)[C@@H](CCCNC(=N)N)NC(=O)[C@H](CCC(N)=O)NC(=O)[C@@H]1CCCN1C(=O)[C@H](CCCNC(=N)N)NC(=O)[C@H](CCCNC(=N)N)NC(=O)[C@H](CCCNC(=N)N)NC(=O)[C@H](CCC(N)=O)NC(=O)[C@H](CCCNC(=N)N)NC(=O)[C@H](CCCNC(=N)N)NC(=O)[C@H](CCCCN)NC(=O)[C@H](CCCCN)NC(=O)[C@H](CCCNC(=N)N)NC(=O)CN)C(=O)N[C@H](CCSC)C(=O)N[C@H](Cc1ccc(O)cc1)C(=O)N[C@H](Cc1ccccc1)C(N)=O the sublethal dose was 2 µM (SK-BR-3; MTT).
C[C@@H]1O[C@@H](O[C@@H]2C=C3CC[C@@H]4[C@H](CC[C@]5(C)[C@@H](c6ccc(=O)oc6)CC[C@]45O)[C@@]3(C)CC2)[C@H](O)[C@H](O)[C@H]1O: “MyBP-C level change” 13 SD (human iPSC cardiomyocytes; plate-normalised; concentration not given, hit retest; reference: vehicle controls, SDs below control).
With CCOc1ccc(Cc2nc3cc(N(C)S(=O)(=O)c4cccs4)ccc3n2CC2CCCCC2)nc1 the EC50 was 7.19 µM (HEK293T ATF4-FLuc reporter; ATF4 reporter gene, activator, luciferase reporter).
For Cc1cnc2ccc3c(nc(N)n3C)c2n1, “relative colony forming efficiency” read 95 ± 11% (BALB/c 3T3; 100 µM; reference: solvent control).

Some of these lines once more:
The inhibition of O=C(O)c1[nH]c(=O)[nH]c(=O)c1F is reported as -32.9% (THP-1; pyroptotic LDH release; 2 µM, 40 min, added: LPS then nigericin).
Cc1cccc(CC(=O)N2CCc3c2ccc(-c2cn(C)c4ncnc(N)c24)c3F)n1 gave a maximum inhibition of 28.7% (human coronavirus OC43; virus-induced cell killing; MRC-5; screen).
CC(c1ccccc1)(c1ccc(O)cc1)c1ccc(O)cc1: “S phase cells” 8.92 ± 2.46% (HepG2 spheroids; Hoechst flow cytometry; 10 µM, 24 h).
